{"data": "Assay results of several laboratories", "note": "Every numbered part comes from another study and shows a few of its results, in no order. “And” joins repeats or separate records; there may be more than shown.", "sequence of UniProt P07949 (whole entry, looked up)": "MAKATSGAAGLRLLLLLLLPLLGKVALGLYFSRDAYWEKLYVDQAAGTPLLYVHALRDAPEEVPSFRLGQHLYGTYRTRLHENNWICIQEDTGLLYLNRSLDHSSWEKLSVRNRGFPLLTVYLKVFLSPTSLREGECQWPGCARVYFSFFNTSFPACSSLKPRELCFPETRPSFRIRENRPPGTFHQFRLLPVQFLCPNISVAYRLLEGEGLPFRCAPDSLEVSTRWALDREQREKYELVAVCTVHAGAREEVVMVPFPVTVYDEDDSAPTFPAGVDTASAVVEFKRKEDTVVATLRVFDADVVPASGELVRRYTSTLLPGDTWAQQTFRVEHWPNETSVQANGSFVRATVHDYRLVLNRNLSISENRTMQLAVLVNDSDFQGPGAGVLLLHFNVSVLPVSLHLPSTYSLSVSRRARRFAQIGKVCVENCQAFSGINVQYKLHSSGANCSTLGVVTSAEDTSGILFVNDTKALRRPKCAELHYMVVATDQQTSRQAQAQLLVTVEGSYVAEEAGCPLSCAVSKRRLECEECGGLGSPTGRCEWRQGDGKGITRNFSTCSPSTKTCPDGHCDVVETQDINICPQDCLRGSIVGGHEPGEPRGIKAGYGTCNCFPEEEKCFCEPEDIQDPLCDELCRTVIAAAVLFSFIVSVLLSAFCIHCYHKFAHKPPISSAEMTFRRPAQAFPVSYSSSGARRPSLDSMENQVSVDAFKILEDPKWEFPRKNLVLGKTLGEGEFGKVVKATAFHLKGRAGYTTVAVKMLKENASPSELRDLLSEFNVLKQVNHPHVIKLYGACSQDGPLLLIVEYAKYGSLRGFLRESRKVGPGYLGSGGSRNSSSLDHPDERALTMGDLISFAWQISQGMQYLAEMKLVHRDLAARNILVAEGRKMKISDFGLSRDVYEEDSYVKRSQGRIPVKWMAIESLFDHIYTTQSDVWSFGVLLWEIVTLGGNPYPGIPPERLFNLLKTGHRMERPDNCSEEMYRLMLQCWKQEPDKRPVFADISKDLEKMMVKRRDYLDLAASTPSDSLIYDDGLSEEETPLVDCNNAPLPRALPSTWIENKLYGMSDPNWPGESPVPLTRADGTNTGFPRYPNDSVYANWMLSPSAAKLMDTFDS", "sequence of UniProt Q8TAS1 (whole entry, looked up)": "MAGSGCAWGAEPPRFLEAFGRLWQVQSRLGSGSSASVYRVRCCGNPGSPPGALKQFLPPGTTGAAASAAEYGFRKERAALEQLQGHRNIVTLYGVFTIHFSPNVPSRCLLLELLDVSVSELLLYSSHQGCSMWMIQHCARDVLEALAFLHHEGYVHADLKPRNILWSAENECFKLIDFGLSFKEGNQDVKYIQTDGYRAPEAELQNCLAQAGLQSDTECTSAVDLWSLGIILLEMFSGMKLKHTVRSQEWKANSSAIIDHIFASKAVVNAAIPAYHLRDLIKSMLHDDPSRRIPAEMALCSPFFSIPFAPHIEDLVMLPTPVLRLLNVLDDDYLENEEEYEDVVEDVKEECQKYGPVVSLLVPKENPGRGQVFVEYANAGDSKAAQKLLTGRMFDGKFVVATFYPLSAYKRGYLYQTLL"}
{"data": "Sample 1", "SMILES": "C=CCc1ccc(O)c(-c2cc(CC=C)ccc2O)c1", "target": "Anoctamin-1 (ANO1, Homo sapiens, UniProt Q5XXA6, del476-501)", "observed": "chloride current", "technique": "whole-cell patch clamp", "sequence of UniProt Q5XXA6 (whole entry, unmodified, looked up)": "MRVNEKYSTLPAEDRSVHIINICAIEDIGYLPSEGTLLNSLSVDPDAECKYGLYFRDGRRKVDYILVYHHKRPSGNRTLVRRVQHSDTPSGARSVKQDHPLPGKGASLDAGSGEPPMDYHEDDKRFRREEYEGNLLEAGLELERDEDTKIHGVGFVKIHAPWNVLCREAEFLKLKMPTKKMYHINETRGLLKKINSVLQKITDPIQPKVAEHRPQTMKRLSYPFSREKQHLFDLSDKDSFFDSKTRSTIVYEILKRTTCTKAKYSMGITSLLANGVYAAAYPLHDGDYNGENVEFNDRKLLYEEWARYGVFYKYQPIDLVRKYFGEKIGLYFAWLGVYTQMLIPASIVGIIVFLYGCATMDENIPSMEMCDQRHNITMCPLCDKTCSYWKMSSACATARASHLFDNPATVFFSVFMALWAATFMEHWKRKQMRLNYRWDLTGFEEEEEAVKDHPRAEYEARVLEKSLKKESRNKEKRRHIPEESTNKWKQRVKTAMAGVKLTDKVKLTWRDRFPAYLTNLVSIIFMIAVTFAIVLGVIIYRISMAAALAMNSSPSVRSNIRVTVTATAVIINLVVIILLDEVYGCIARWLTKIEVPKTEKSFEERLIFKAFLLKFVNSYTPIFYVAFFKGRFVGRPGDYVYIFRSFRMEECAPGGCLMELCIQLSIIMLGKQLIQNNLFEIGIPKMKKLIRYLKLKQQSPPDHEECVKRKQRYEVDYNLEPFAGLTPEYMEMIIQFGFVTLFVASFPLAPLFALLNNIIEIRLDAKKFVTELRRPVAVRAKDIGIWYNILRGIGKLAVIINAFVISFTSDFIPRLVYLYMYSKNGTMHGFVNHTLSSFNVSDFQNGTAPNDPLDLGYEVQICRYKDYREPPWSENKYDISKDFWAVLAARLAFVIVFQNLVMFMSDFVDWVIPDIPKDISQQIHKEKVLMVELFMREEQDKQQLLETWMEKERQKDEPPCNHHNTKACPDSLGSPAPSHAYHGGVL"}
{"setting": "30 µM, 0 mV, 300 nM free Ca2+", "normalised current": -0.000379}
{"setting": "100 µM, -80 mV, 300 nM free Ca2+", "normalised current": -0.0263}
{"setting": "10 µM, 20 mV, 300 nM free Ca2+, together with: honokiol and magnolol 3 µM", "normalised current": 0.0497}
{"setting": "30 µM, -40 mV, 300 nM free Ca2+", "normalised current": -0.0275}
{"setting": "100 µM, -20 mV, 300 nM free Ca2+", "normalised current": -0.0097}
{"setting": "3 µM, 100 mV, 300 nM free Ca2+", "normalised current": 0.925}
{"setting": "10 µM, 40 mV, 300 nM free Ca2+", "normalised current": 0.141}
{"setting": "30 µM, 20 mV, 300 nM free Ca2+", "normalised current": 0.0257}
{"setting": "30 µM, -20 mV, 300 nM free Ca2+", "normalised current": -0.0164}
{"setting": "1 µM, 100 mV, 300 nM free Ca2+", "normalised current": 0.934}
{"setting": "100 µM, -100 mV, 300 nM free Ca2+", "normalised current": -0.0317}
{"setting": "1 µM, -60 mV, 300 nM free Ca2+", "normalised current": -0.0885}
{"setting": "100 µM, -40 mV, 300 nM free Ca2+", "normalised current": -0.0161}
{"setting": "30 µM, -20 mV, 300 nM free Ca2+, together with: honokiol and magnolol 3 µM", "normalised current": -0.0103}
{"setting": "3 µM, 80 mV, 300 nM free Ca2+", "normalised current": 0.609}
{"setting": "1 µM, 0 mV, 300 nM free Ca2+", "normalised current": -0.000284}
{"data": "Sample 2", "Structure (SMILES)": "CCC(=O)N[C@@H]1CC[C@H](C(=O)N(C)c2ccc(-c3nc4ccccc4o3)cc2)C1", "tested at": "1 µM"}
{"target": "EPHA1 (Homo sapiens, UniProt P21709)", "test": "cell-free assay, competition with immobilised ligand", "remaining binding [%]": 87}
{"target": "MAP3K7 (Homo sapiens, UniProt O43318)", "test": "cell-free assay, competition with immobilised ligand", "remaining binding [%]": 100}
{"target": "CSNK1D (Homo sapiens, UniProt P48730)", "test": "cell-free assay, competition with immobilised ligand", "remaining binding [%]": 100}
{"target": "MAP2K3 (Homo sapiens, UniProt P46734)", "test": "cell-free assay, competition with immobilised ligand", "remaining binding [%]": 91}
{"target": "PAK1 (Homo sapiens, UniProt Q13153)", "test": "cell-free assay, competition with immobilised ligand", "remaining binding [%]": 82}
{"target": "WEE1 (Homo sapiens, UniProt P30291)", "test": "cell-free assay, competition with immobilised ligand", "remaining binding [%]": 99}
{"target": "Tyrosine-protein kinase ABL1, phosphorylated (ABL1, Homo sapiens, UniProt P00519, F317I)", "test": "binding", "remaining binding [%]": 87}
{"target": "PIK3CA (Homo sapiens, UniProt P42336, E542K)", "test": "cell-free assay, competition with immobilised ligand", "remaining binding [%]": 84}
{"target": "CAMKK1 (Homo sapiens, UniProt Q8N5S9)", "test": "cell-free assay, competition with immobilised ligand", "remaining binding [%]": 100}
{"target": "Tyrosine-protein kinase ABL1, phosphorylated (ABL1, Homo sapiens, UniProt P00519, T315I)", "test": "cell-free assay, competition with immobilised ligand", "remaining binding [%]": 87}
{"target": "PRKAA1 (Homo sapiens, UniProt Q13131)", "test": "cell-free assay, competition with immobilised ligand", "remaining binding [%]": 91}
{"target": "Ribosomal protein S6 kinase alpha-4, C-terminal kinase domain (RPS6KA4, Homo sapiens, UniProt O75676)", "test": "cell-free assay, competition with immobilised ligand", "remaining binding [%]": 100}
{"target": "TYRO3 (Homo sapiens, UniProt Q06418)", "test": "cell-free assay, competition with immobilised ligand", "remaining binding [%]": 82}
{"target": "FLT4 (Homo sapiens, UniProt P35916)", "test": "cell-free assay, competition with immobilised ligand", "remaining binding [%]": 100}
{"target": "FGFR3 (Homo sapiens, UniProt P22607)", "test": "cell-free assay, competition with immobilised ligand", "remaining binding [%]": 100}
{"target": "Cyclin-dependent kinase 4, with cyclin D3 (CDK4, Homo sapiens, UniProt P11802)", "test": "cell-free assay, competition with immobilised ligand", "remaining binding [%]": 100}
{"target": "AKT1 (Homo sapiens, UniProt P31749)", "test": "cell-free assay, competition with immobilised ligand", "remaining binding [%]": 100}
{"target": "ACVR1 (Homo sapiens, UniProt Q04771)", "test": "cell-free assay, competition with immobilised ligand", "remaining binding [%]": 94}
{"target": "PRKCH (Homo sapiens, UniProt P24723)", "test": "cell-free assay, competition with immobilised ligand", "remaining binding [%]": 95}
{"target": "IGF1R (Homo sapiens, UniProt P08069)", "test": "cell-free assay, competition with immobilised ligand", "remaining binding [%]": 100}
{"data": "Sample 3", "target": "DNA polymerase theta, helicase domain (POLQ, Homo sapiens, UniProt O75417)", "action": "inhibitor", "tested at": "concentration not given", "notes": "absolute value", "together with": "with minus without ssDNA", "sequence of UniProt O75417 (whole entry, looked up)": "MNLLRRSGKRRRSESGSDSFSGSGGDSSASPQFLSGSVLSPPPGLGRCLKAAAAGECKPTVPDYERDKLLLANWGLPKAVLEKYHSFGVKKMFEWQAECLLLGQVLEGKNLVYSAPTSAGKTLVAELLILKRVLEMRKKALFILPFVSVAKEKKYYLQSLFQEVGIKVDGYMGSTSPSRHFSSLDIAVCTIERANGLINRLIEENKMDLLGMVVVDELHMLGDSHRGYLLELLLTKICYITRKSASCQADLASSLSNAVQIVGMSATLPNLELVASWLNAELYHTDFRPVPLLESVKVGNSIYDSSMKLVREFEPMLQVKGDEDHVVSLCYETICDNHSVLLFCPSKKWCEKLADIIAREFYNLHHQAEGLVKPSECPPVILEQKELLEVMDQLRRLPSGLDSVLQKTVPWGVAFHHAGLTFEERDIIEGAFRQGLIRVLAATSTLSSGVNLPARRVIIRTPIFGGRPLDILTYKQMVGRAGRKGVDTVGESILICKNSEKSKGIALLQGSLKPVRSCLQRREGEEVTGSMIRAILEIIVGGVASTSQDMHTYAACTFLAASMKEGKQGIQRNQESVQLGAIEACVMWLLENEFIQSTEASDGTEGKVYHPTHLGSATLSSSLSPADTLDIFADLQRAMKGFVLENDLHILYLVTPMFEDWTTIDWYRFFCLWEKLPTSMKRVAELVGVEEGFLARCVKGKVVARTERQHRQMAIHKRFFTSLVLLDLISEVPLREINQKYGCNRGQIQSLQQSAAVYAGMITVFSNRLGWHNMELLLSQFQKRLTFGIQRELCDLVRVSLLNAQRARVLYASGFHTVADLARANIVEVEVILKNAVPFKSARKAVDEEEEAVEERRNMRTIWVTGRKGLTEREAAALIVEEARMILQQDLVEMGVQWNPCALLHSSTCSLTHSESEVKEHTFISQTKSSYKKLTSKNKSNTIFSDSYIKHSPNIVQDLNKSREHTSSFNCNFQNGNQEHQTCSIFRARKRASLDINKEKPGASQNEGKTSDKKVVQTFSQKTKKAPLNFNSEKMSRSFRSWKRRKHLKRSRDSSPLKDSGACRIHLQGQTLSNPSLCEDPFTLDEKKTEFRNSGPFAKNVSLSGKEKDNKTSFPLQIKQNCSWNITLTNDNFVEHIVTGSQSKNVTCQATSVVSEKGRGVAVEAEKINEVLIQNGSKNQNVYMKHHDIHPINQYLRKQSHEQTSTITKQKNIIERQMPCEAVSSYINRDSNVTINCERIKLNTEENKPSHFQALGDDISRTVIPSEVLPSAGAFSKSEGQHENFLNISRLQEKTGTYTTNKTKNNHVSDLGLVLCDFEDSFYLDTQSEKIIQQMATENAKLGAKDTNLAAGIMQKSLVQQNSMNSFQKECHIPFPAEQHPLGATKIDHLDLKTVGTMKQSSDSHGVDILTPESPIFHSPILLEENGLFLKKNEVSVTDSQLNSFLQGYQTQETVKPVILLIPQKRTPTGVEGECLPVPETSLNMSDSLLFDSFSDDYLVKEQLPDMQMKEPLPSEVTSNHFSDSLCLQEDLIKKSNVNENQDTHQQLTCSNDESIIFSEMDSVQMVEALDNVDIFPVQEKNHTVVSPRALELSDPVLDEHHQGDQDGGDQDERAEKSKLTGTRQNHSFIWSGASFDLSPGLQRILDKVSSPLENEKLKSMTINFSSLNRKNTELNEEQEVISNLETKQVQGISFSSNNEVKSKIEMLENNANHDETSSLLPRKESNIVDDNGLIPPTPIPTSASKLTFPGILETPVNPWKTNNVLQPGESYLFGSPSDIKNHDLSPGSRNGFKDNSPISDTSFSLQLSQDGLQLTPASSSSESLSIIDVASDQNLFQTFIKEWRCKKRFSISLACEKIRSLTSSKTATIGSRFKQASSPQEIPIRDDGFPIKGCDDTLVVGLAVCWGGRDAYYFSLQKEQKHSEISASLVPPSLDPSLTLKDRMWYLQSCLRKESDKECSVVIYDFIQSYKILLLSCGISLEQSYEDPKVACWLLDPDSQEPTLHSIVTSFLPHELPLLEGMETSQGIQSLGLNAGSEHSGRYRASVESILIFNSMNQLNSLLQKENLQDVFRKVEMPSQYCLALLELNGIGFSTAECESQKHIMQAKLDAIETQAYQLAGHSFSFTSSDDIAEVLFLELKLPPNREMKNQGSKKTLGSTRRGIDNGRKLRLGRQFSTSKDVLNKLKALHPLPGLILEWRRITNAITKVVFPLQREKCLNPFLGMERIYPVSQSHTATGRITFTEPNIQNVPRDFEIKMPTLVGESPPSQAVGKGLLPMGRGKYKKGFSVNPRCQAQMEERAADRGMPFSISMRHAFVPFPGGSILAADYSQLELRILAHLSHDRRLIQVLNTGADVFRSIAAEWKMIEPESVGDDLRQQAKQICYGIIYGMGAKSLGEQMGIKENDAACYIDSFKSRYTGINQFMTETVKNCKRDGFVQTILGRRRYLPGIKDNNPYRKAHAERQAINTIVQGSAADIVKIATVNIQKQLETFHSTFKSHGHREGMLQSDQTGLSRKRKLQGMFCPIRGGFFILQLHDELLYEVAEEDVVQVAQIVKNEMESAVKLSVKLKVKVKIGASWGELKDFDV"}
{"Structure (SMILES)": "CCOc1cccc2c1N[C@@H](c1ccc(C(=O)O)cc1)[C@H]1CC=C[C@@H]21", "difference in remaining activity": "15.7%"}
{"Structure (SMILES)": "Cc1ccc(-c2n[nH]c3c2C(c2ccccc2Cl)N(c2ccc(C(=O)O)cc2)C3=O)cc1 (stereo not drawn)", "difference in remaining activity": "8.67%"}
{"Structure (SMILES)": "C[C@H]1[C@H](C)CC[C@]2(C(=O)O)CC[C@]3(C)C(=CC[C@@H]4[C@@]5(C)C[C@@H](O)[C@H](O)[C@@](C)(CO)[C@@H]5CC[C@]43C)[C@H]12", "difference in remaining activity": "0.957%"}
{"Structure (SMILES)": "Cc1noc(C)c1S(=O)(=O)Nc1ccc(C(=O)Nc2ccc(Br)cc2)cc1", "difference in remaining activity": "21.7%"}
{"Structure (SMILES)": "CCOc1nc2cccc(C(=O)OCc3oc(=O)oc3C)c2n1Cc1ccc(-c2ccccc2-c2noc(=O)[nH]2)cc1", "difference in remaining activity": "12.4%"}
{"Structure (SMILES)": "CCCCCCCCCCC/C=C\\C(C)(C)/C=C\\CCCC(=O)O", "difference in remaining activity": "3.63%"}
{"Structure (SMILES)": "COc1ccc(C(=O)Nc2noc3ccccc23)cc1", "difference in remaining activity": "0.697%"}
{"Structure (SMILES)": "Cc1ccc(C(=O)Nc2ccccc2C(=O)O)cc1S(=O)(=O)N1CCCCCC1", "difference in remaining activity": "4.13%"}
{"Structure (SMILES)": "COC(=O)c1cc(Cl)ccc1NC(=O)CSc1ncc(S(=O)(=O)c2ccc(Br)cc2)c(=O)[nH]1", "difference in remaining activity": "53.4%"}
{"Structure (SMILES)": "O=C(O)C1=CC(=C(c2ccc(O)c(C(=O)O)c2)c2ccc(O)c(C(=O)O)c2)C=CC1=O", "difference in remaining activity": "5.17%"}
{"Structure (SMILES)": "Cc1nc(N=Nc2cc(S(=O)(=O)O)c3cc([N+](=O)[O-])cc(S(=O)(=O)O)c3c2)c(COP(=O)(O)O)c(C=O)c1O", "difference in remaining activity": "107%"}
{"data": "Sample 4", "SMILES": "O=C1NC(=O)C(c2cn(-c3ccccc3)nc2-c2ccc(F)cc2)N1 (stereo not drawn)", "action": "inhibitor", "tested at": "5 µM"}
{"target": "BRAF (Homo sapiens, UniProt P15056, G466V)", "test": "cell-based kinome profiling", "system": "human cells", "how to read": "relative to: vehicle control", "log2 fold change": -0.063}
{"target": "Fas-activated serine/threonine kinase (Homo sapiens, UniProt Q14296)", "test": "cell-based kinome screen", "system": "human cells", "how to read": "relative to: vehicle", "log2 fold change": -0.256}
{"target": "RET (Homo sapiens, UniProt P07949)", "system": "human cells", "setting": "cell-based kinome screen", "how to read": "relative to: vehicle", "log2 fold change": "0.21 and -0.151"}
{"target": "DYRK2 (Homo sapiens, UniProt Q92630)", "system": "human cells", "how to read": "relative to: vehicle", "log2 fold change": -0.407}
{"target": "MAP3K12 (Homo sapiens, UniProt Q12852)", "test": "cell-based kinome screen", "system": "human cells", "how to read": "relative to: untreated control", "log2 fold change": -0.318}
{"target": "TP53RK (Homo sapiens, UniProt Q96S44)", "test": "kinase activity", "setting": "cell-based kinome screen", "how to read": "relative to: vehicle", "log2 fold change": -0.32}
{"target": "BCR-ABL human", "test": "kinase-CDC37 interaction", "system": "human cells", "how to read": "relative to: vehicle", "log2 fold change": -1.35}
{"target": "MATK (Homo sapiens, UniProt P42679)", "test": "cell-based kinome screen", "system": "human cells", "how to read": "relative to: untreated control", "log2 fold change": "-0.031 log2"}
{"target": "PTK6 (Homo sapiens, UniProt Q13882)", "test": "kinase activity", "setting": "cell-based kinome screen", "how to read": "relative to: vehicle", "log2 fold change": -0.005}
{"target": "Activin receptor type-1C (Homo sapiens, UniProt Q8NER5)", "test": "cell-based kinome profiling", "system": "human cells", "how to read": "relative to: vehicle control", "log2 fold change": -0.158}
{"target": "CDKL4 (Homo sapiens, UniProt Q5MAI5)", "test": "kinase-CDC37 interaction", "system": "human cells", "how to read": "relative to: vehicle", "log2 fold change": 0.163}
{"target": "PRKCB (Homo sapiens, UniProt P05771)", "test": "cell-based kinome screen", "system": "human cells", "how to read": "relative to: untreated control", "log2 fold change": "-0.086 log2"}
{"target": "STK38 (Homo sapiens, UniProt Q15208)", "test": "kinase-CDC37 interaction", "system": "human cells", "how to read": "relative to: vehicle", "log2 fold change": -0.18}
{"target": "Serine/threonine-protein kinase Kist (UHMK1, Homo sapiens, UniProt Q8TAS1)", "test": "kinase-CDC37 interaction", "system": "human cells", "how to read": "relative to: vehicle", "log2 fold change": 0.37}
{"target": "RPS6KC1 (Homo sapiens, UniProt Q96S38)", "test": "kinase-CDC37 interaction", "system": "human cells", "how to read": "relative to: vehicle", "log2 fold change": -0.16}
{"target": "kinase–CDC37 interaction", "test": "kinase–CDC37 binding", "system": "human cells", "setting": "PRKY", "how to read": "relative to: vehicle", "log2 fold change": -0.176}
{"note": "Some of these lines once more (sample 3):"}
{"Structure (SMILES)": "CCOc1nc2cccc(C(=O)OCc3oc(=O)oc3C)c2n1Cc1ccc(-c2ccccc2-c2noc(=O)[nH]2)cc1", "difference in remaining activity": "12.4%"}
{"Structure (SMILES)": "Cc1ccc(C(=O)Nc2ccccc2C(=O)O)cc1S(=O)(=O)N1CCCCCC1", "difference in remaining activity": "4.13%"}
{"Structure (SMILES)": "O=C(O)C1=CC(=C(c2ccc(O)c(C(=O)O)c2)c2ccc(O)c(C(=O)O)c2)C=CC1=O", "difference in remaining activity": "5.17%"}
{"Structure (SMILES)": "C[C@H]1[C@H](C)CC[C@]2(C(=O)O)CC[C@]3(C)C(=CC[C@@H]4[C@@]5(C)C[C@@H](O)[C@H](O)[C@@](C)(CO)[C@@H]5CC[C@]43C)[C@H]12", "difference in remaining activity": "0.957%"}
{"Structure (SMILES)": "Cc1ccc(-c2n[nH]c3c2C(c2ccccc2Cl)N(c2ccc(C(=O)O)cc2)C3=O)cc1 (stereo not drawn)", "difference in remaining activity": "8.67%"}
{"Structure (SMILES)": "Cc1noc(C)c1S(=O)(=O)Nc1ccc(C(=O)Nc2ccc(Br)cc2)cc1", "difference in remaining activity": "21.7%"}
{"Structure (SMILES)": "COC(=O)c1cc(Cl)ccc1NC(=O)CSc1ncc(S(=O)(=O)c2ccc(Br)cc2)c(=O)[nH]1", "difference in remaining activity": "53.4%"}
{"Structure (SMILES)": "Cc1nc(N=Nc2cc(S(=O)(=O)O)c3cc([N+](=O)[O-])cc(S(=O)(=O)O)c3c2)c(COP(=O)(O)O)c(C=O)c1O", "difference in remaining activity": "107%"}
{"Structure (SMILES)": "COc1ccc(C(=O)Nc2noc3ccccc23)cc1", "difference in remaining activity": "0.697%"}
